# Measurements pooled from the literature.
# Each numbered part is a random draw from the data of one study; scales do not carry over between parts.

# Study 1
# Target: Histone acetyltransferase KAT6A, winged helix 2, GST fusion (KAT6A, Homo sapiens, UniProt Q92794, residues 85-181)
# Technique: protein binding microarray
# Form: double-stranded DNA, one strand shown
# Medium: in vitro
# Tested at: not given
# Notes: 8-mer, flanks averaged, mean of 2 arrays, mostly near background
# Relative to: not given
# Reading: higher = stronger binding
# Residues (chain): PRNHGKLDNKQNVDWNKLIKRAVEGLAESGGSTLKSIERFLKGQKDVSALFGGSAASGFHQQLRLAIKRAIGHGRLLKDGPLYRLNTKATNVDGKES
Oligonucleotide,E-score
ACCGTATA,-0.242
ATTCCGCC,0.0861
TATGGGAA,-0.0324
GGTAACAC,-0.011
CATGCATC,0.155
GTAAACTA,0.0975
AGTACTCC,-0.048
TAGTGAGA,-0.024
AAGACGCA,0.0564
CAATTATA,-0.0257
CCGAGTGA,0.144
CACCAAGC,-0.142
CACAATCG,0.0847
ATAACCAC,-0.249
ATGTTGAC,-0.078
CAGTCGAC,0.166
CGTCACCA,-0.00867
CTACCACC,-0.208

# Study 2
# Target: Sal-like protein 4, full length isoform A (SALL4, Homo sapiens, UniProt Q9UJQ4, residues 1-1053)
# Chain of UniProt Q9UJQ4 (whole entry, looked up): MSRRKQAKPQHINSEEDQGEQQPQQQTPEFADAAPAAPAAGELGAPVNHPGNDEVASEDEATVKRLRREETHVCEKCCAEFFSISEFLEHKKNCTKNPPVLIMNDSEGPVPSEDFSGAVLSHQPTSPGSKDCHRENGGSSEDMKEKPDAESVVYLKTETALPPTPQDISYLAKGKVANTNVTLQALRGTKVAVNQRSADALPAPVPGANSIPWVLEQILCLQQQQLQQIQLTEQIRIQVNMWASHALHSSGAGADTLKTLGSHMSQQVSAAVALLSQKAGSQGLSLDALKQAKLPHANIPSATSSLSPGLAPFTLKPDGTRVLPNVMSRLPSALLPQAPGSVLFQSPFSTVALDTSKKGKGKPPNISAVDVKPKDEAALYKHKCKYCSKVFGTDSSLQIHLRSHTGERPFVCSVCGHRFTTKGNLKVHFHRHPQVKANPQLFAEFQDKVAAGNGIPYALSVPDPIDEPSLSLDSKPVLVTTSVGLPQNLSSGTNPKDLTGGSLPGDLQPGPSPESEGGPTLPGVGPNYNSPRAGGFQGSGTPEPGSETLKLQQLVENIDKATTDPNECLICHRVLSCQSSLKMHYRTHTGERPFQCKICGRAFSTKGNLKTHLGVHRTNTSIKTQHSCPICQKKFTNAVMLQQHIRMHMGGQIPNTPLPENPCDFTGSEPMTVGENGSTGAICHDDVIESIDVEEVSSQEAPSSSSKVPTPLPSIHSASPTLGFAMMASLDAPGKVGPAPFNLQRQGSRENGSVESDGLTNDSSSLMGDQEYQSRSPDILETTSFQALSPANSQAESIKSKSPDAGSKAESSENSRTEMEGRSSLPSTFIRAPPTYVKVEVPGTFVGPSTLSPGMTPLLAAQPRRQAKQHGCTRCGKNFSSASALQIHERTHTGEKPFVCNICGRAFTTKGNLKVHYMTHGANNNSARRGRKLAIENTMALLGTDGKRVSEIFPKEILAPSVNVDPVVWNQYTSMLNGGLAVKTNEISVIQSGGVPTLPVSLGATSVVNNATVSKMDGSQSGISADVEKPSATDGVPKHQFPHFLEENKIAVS
# Technique: universal PBM
# Form: double-stranded DNA, one strand shown
# Medium: in vitro
# Tested at: 600 nM
# Notes: 8-mer, flanks averaged, mean of replicates
# Reading: higher = stronger binding
Oligonucleotide,E-score
AAGTTTCA,0.183
AATCTACA,0.203
GAGGAGGC,-0.364
GGCTCACC,-0.37
AACAGATC,-0.00281
ACGACCGG,-0.293
AACATTTC,0.22
ATCGGTTA,0.118
ACCGCAGG,-0.228
TGTAAACA,0.293
CTCAACAA,0.155
GTGTCCAA,-0.0389
GAGGTTCA,-0.0111
ATGGACAC,0.0371
CGGTCATA,0.11
AGTGGAAG,-0.227
ACATTCGC,-0.0623
AAGTGACC,-0.269
AACTAGCG,-0.097

# Study 3
# Target: RNA binding protein fox-1 homolog 2, RRM domain, GST-SBP tag (RBFOX2, Homo sapiens, UniProt O43251-10, residues 100-194)
# Technique: RNA Bind-n-Seq
# Form: RNA
# Medium: in vitro
# Tested at: 365 nM
# Notes: natural RNA segment, single round, ends assumed
# Relative to: no-protein control
# Reading: higher = stronger binding
# Construct (chain): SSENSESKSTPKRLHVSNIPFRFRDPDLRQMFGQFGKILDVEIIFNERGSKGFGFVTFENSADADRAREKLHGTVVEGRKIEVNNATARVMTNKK
Oligonucleotide,RBNS enrichment (R)
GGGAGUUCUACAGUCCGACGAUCUUGAGACAAUUUCUCUCUUGUUGCCUAGGCAGUGCAGUGGCGCGAUCUCAGCUCCCUGCAACUUCUGCCUCCCAGGUUCAAGCGAUUCUCCUGCCUUAGCCUCCUGAGUAUGGAAUUCUCGGGUGCCAA,0.182
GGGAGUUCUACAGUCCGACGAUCGCGGCGCUCUAGUUGUAUGUAAGAUGGGCAUUCCUCUGCUCUCCUCUAUUCUCCAUGUCGACUGAGAAGAGUAUAAUAAGAACAUUGUACCCUCUCCACACUUAACCCUCUGGAAUUCUCGGGUGCCAA,0.489
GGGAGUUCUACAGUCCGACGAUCGUUUAUAUGAGUUUGUUUUGUUCUAAAAUACCCAAACAGUUCUGGUCAAGCGGGGCUAUGCCCGUCUGGCCCAAAACACAGUCCGUUAUUAACGAGAUGGCCCUGGCAGGUGGAAUUCUCGGGUGCCAA,0.228
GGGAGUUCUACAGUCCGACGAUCAUUGUAGGGGUGCAGUUUGUCCAACUCUUUCCAACAGCCCAUUAGACACCACUAGCUGGAUAUUUCACAGGCAUCUUUGAUUCAAUAUGUCCAAAGUGGAACUCUCCAUCUGGAAUUCUCGGGUGCCAA,0.462
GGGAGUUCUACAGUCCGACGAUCCACUCCUUGCUUGAGUGGGUUAAAGGAACUAACAGUUGUCCCUUUAGGAGGACAAAAUGGGGUCAAGAGGACACAGAAGAGUUGUAUAGCACCAGAUUGGUUCCAAAUAGUGGAAUUCUCGGGUGCCAA,0.633
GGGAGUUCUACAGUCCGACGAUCCAUGGUAGUGGCAAAGAGAGGUCCAGAGUCCUGGCCCUUGAUGCCCAGCUCAGUGCCACAAAGCUCAAUAGGAGGGAUGUUCCAGUGGAUGAGGGCCACCAGGAAGCACAUGGAAUUCUCGGGUGCCAA,0.808
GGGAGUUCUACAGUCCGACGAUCCCACGUGGGCCGCUGAACUGUGUCCAGCUGUGGCAGCAAAGGGAGCGGUCUCCAUUUCCCAGGCUCCUCUGGGGUCUCUGCCUCUGGCCGUGUGUCAAGGAGAUGCCCACUGGAAUUCUCGGGUGCCAA,0.189
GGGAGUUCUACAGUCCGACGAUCAAGGUUCUUUGAAGAAUUUUGGGGCAGGGCAUCAGAUUAGAGUUUUAAAAUUUGAGUAUUUUGGAUAUCAGUGUUCCUCAUGAAGAUAUACAUGGAUAUUCAAUUUUGAUUGGAAUUCUCGGGUGCCAA,0.411

# Study 4
# Target: Fragile X messenger ribonucleoprotein 1, C-terminal low-complexity region (Fmr1, Mus musculus, UniProt P35922)
# Technique: RNA Bind-n-Seq
# Form: RNA
# Medium: in vitro
# Tested at: 200 nM
# Notes: whole 134-nt RNA, ends assumed
# With: 150 mM KCl
# Relative to: input library
# Reading: higher = stronger binding
Oligonucleotide,log2 enrichment
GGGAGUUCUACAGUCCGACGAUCCAUCCUUUGGGCCCCUCAAGGCCUUCAACCUGGUCAAGGACAGUGCCACGGGGCUCUCCAAGGGCUACGCCUUCUGUGAGUACGUGGACAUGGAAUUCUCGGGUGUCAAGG,-1.44
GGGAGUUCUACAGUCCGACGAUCAGUCCUGUGCUACACAUCGUAUGUACCGAAUCGGGUUUGGGUUUUUGGGAAAAAGGGAAAGUAUUAUGUUACGCCGUUCGGAUCUGCACUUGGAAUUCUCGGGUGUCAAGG,0.302
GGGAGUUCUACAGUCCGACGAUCCAAGUCCUGUGCUACACAUCGUAUGUACCGAAUCGGGGAAAGGGAAAGGGAAAGGGAAAGUAUUAUGUUACGCCGUUCGGAUCUGCACUUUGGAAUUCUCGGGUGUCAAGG,0.567
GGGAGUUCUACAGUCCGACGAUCAGUCCUGUGCUACACAUCGUAUGUACCGAAUCGGGGCCCCGGGCCCCGGGGCCCCGGGAAAGUAUUAUGUUACGCCGUUCGGAUCUGCACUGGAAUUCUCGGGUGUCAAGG,-1.06
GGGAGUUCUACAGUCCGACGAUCCCUGUGCUACACAUCGUAUGUACCGAAUCGGGAAAAAGGGAAAAAAAGGGUUUUUUUGGGAAAGUAUUAUGUUACGCCGUUCGGAUCUGCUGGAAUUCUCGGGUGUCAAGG,-0.815
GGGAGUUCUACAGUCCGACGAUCUGGGAGGUGCAUUUUGUUUAUUUUUUUAGCUCAUUUCCAGGGGUGGGAAUUUUUUUUUAAUAUGUGUCAUGAAUAAAGUUGUUUUUGAAAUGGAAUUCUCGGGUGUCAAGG,0.291
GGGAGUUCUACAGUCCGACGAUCUCCUCAAGUCCUGUGCUACACAUCGUAUGUACCGAAUCGGAGGAGGAAAGGAAAGUAUUAUGUUACGCCGUUCGGAUCUGCACUUCCAGCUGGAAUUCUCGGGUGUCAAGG,-0.628
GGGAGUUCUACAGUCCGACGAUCCCUGUGCUACACAUCGUAUGUACCGAAUCGGGGAAAAAAAGGGGUUUUUUUGGGGUGGGGAAAGUAUUAUGUUACGCCGUUCGGAUCUGCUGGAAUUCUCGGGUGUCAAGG,0.492
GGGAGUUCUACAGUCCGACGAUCCUGUGCUACACAUCGUAUGUACCGAAUCGGGGAAAAAAAGGGGUUUUUGGGGUUUUUGGGGAAAGUAUUAUGUUACGCCGUUCGGAUCUGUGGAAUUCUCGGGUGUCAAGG,-0.035

# For quick reference, copied from above (study 4):
Oligonucleotide,log2 enrichment
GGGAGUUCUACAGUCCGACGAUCAGUCCUGUGCUACACAUCGUAUGUACCGAAUCGGGUUUGGGUUUUUGGGAAAAAGGGAAAGUAUUAUGUUACGCCGUUCGGAUCUGCACUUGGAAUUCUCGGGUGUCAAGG,0.302
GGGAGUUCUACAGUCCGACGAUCCAAGUCCUGUGCUACACAUCGUAUGUACCGAAUCGGGGAAAGGGAAAGGGAAAGGGAAAGUAUUAUGUUACGCCGUUCGGAUCUGCACUUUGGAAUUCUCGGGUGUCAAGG,0.567
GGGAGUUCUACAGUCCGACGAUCAGUCCUGUGCUACACAUCGUAUGUACCGAAUCGGGGCCCCGGGCCCCGGGGCCCCGGGAAAGUAUUAUGUUACGCCGUUCGGAUCUGCACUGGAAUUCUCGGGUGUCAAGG,-1.06
